Measurements of several laboratories.
Parts stem from different laboratories: compare values within a part only.

Study 1
Target: Prothrombin, mature alpha-thrombin (F2, Homo sapiens, UniProt P00734)
Technique: aptamer microarray, sandwich
Form: DNA with 2'F-ANA
Sample: in vitro
Tested at: 200 nM
Notes: whole 15-mer aptamer, many near background
With: Cy3 exosite-II aptamer, 400 nM
Reading: higher = stronger binding
Sequence: GGTTGGTGTGGTTGG
| Modification | mean fluorescence intensity [a.u.] |
| --- | --- |
| 2'F-ANA at 2 3 5 6 11 12 13 14 | 120 |
| 2'F-ANA at 3 5 7 8 9 11 12 13 14 15 | 63.1 |
| 2'F-ANA at 1 2 4 7 9 10 12 13 14 | 52 |
| 2'F-ANA at 1 3 4 9 10 11 12 13 15 | 67.9 |
| 2'F-ANA at 4 5 7 15 | 152 |
| 2'F-ANA at 1 2 9 11 12 13 14 15 | 71 |
| 2'F-ANA at 3 4 7 9 10 12 13 | 306 |
| 2'F-ANA at 4 5 8 11 12 13 15 | 79.3 |
| 2'F-ANA at 1 2 5 6 8 9 10 12 14 15 | 59.7 |
| 2'F-ANA at 4 6 10 11 | 74 |
| 2'F-ANA at 1 3 4 6 12 13 14 | 93.3 |
| 2'F-ANA at 2 5 11 13 14 | 51.3 |
| 2'F-ANA at 4 5 6 7 9 12 14 15 | 55.7 |
| 2'F-ANA at 2 3 4 6 9 12 14 | 230 |
| 2'F-ANA at 2 5 7 8 10 11 | 45.9 |
| 2'F-ANA at 2 3 5 6 7 8 9 13 | 72.8 |
| 2'F-ANA at 6 10 11 12 13 14 15 | 97.8 |
| 2'F-ANA at 1 2 4 5 6 8 10 | 55.6 |
| 2'F-ANA at 1 3 4 5 8 9 10 11 12 | 47.3 |
| 2'F-ANA at 2 3 4 5 12 | 294 |
| 2'F-ANA at 2 5 7 8 9 11 12 14 15 | 65.7 |
| 2'F-ANA at 2 3 4 5 6 8 13 14 15 | 43.6 |
| 2'F-ANA at 6 7 10 11 12 13 14 | 100 |
| 2'F-ANA at 1 2 3 4 5 6 7 9 11 12 13 14 | 51.9 |
| 2'F-ANA at 2 8 10 12 | 187 |

Study 2
Target: Histone acetyltransferase KAT6A, winged helix 2, GST fusion (KAT6A, Homo sapiens, UniProt Q92794, residues 85-181)
Technique: protein binding microarray
Form: double-stranded DNA, one strand shown
Sample: in vitro
Tested at: not given
Notes: 8-mer, flanks averaged, mean of 2 arrays, mostly near background
Baseline: not given
Reading: higher = stronger binding
Target sequence (chain): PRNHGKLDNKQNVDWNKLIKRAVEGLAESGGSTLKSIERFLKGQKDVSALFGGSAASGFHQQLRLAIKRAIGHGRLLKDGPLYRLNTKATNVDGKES
| Sequence | E-score |
| --- | --- |
| ACCTCATG | -0.178 |
| AAAAGATC | -0.161 |
| CCACCACG | 0.0166 |
| AACTGATT | -0.176 |
| AGCGCGCT | 0.0154 |
| AGCCATTC | -0.0941 |
| GCGAGAGC | 0.209 |
| GCAGTAAC | -0.121 |
| AAGCAAGA | 0.0292 |
| CCCGATGC | 0.175 |
| ATCTTGGA | 0.0875 |
| AACGAGGC | 0.0533 |
| GCTAGAAC | 0.00748 |
| ATAGGACA | -0.278 |
| CAGGATTA | 0.00072 |
| AACTCGCC | 0.118 |
| CTTGCGGC | 0.15 |
| TGATTGAA | -0.0602 |
| AGTTACTC | 0.0788 |
| CTGTAACC | -0.01 |
| GCCAACCC | 0.0893 |
| CGCGGTCA | 0.0865 |
| ACGGGTCC | 0.00385 |
| CTAGCTGA | -0.173 |
| TCTTCGAA | 0.0206 |

Study 3
Target: RNA binding protein fox-1 homolog 2, RRM domain, GST-SBP tag (RBFOX2, Homo sapiens, UniProt O43251-10, residues 100-194)
Technique: RNA Bind-n-Seq
Form: RNA
Sample: in vitro
Tested at: 365 nM
Notes: natural RNA segment, single round, ends assumed
Baseline: no-protein control
Reading: higher = stronger binding
Target sequence (chain): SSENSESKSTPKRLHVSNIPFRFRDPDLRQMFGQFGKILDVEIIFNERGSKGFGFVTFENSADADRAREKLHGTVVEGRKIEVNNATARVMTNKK
| Sequence | RBNS enrichment (R) |
| --- | --- |
| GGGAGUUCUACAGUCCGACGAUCCCUUCAUGACGGGAACCUAAGGACGAAGCCUACAGGGGCAAGGGCCGCUUCGUAUUCCUGGAAGAAGGAAGGCAUAGGCUUCGGUUUUCCCCUCGGAAACUGCUUCUGCUUGGAAUUCUCGGGUGCCAA | 0.411 |
| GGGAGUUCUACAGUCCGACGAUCUAUUAACUUGUUCAAUUCCCUUAACUCUAUGAAAUAGGCAUUAUUACUACCCCCAGGUUUUCAAAUGAAUUAACAGAAGCAGAGGUGUUGAGUAAAUGUAUCCAAGAGACUGGAAUUCUCGGGUGCCAA | 0.376 |
| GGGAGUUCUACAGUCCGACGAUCCCCCACUUCCUUUCACUCACGCAUGGCCACAGCAUCUCUCUCUAGUAGCCGAGAGUGUCAUUCUCUCCACCCUUUCUGUGUGUACCAGAGCCACACCCAUGCCAUUACUGUGGAAUUCUCGGGUGCCAA | 1.58 |
| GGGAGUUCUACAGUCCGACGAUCUUGAGACAGGACGGGUCCCACACUCCCUGCCUCUGUCUCACUCAACACUCAGGCUAAGAAGGAGCGGGUCACCACAGACAAGAGUGGGGCCAUAUGUAGCACAGCAAUAUUGGAAUUCUCGGGUGCCAA | 0.638 |
| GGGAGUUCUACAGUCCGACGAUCGGGCAGAAAUCUAUAGAUUCUUUUGAAAUGUAAAUAAAAAGAUUGUAAACGCCCUAUAGUUUCUAUACAGCAUGCUGCAUUGUCAAUUUGGUAGCUUUUUCUCUUUCUUUUGGAAUUCUCGGGUGCCAA | 38.5 |
| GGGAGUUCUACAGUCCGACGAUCUUAGGCCUCUUGUUCACAUCAAAAGAUAUUGGUGUCAGAAUACCAGCAUUUUCCUGCCAUGCAAAGGAUUAAAACUUAGUUUACACUAUGUGGUUACAAAUAUAUGUCAAUGGAAUUCUCGGGUGCCAA | 0.495 |
| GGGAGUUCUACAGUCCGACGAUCGUGGAAGUUGCUAGUGCAGUCUUGGUCUGAUGGCUGUGUGCAUCGCACAUUCGGCUUGGUGAAAUCCUUCUCUAAAGCCUCUUUUUGUAUUUUUAUAACUAAACAGAGGAUGGAAUUCUCGGGUGCCAA | 0.672 |
| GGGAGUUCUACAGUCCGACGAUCCUUGCUUAAUGCUUUUGUUGACUCAACAAGGGCCCGAGGCCUUAGGUUUUCUAUUAAGGUCUCUGCCCCAGGCAUGGUGCUCUAUAUCUUGGCCAAAUAAAUUACUUUCCUGGAAUUCUCGGGUGCCAA | 0.343 |
| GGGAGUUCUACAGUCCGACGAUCCAUCAUUUUACCAAACAUACCGAGAACGAAAACUUCAAGGAUGAUGUUAGAAAAAAAUGUGAUUUAACUAGAACUUGCUGUCUGAUGUUAGCAAAUCAUGGAAUGUUCUGUGGAAUUCUCGGGUGCCAA | 0.338 |
| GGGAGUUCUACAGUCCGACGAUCAAAAUAUACUGAAAGCCUGUUUUCAUUUGAUUCCAAUGUUUCUUCCAAAGAAUUCUGUAUAAACAUAUGCCAAUUCCCUAUGAUGGUCUAGAGUUAGGAAUGAGUGUUUAUGGAAUUCUCGGGUGCCAA | 2.08 |
| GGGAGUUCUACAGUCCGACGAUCUGGGAGCAGAUGGCCUGCCUUUGGCUGAGAGGGCUACCUGCCCAGCCCCUCCCCCAACAAGAUCUCUUGGACUCAGGCCUCAGAGCCUGGCCUGGUUGUGAGUGUGUGUCUGGAAUUCUCGGGUGCCAA | 0.442 |
| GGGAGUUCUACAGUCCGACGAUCAGAACCUGACAUCAGAGGAGAGUGUGAUUUACCUGGGCUCAUAUAAUUAGAAGCAUCUCCAGGCCUGGAGAAAAUUUGAACUUAUGGUCCCGGGCUGCUUUGUAGUGAGCUGGAAUUCUCGGGUGCCAA | 0.393 |

Study 4
Target: Transcription factor SOX-2, HMG box (SOX2, Homo sapiens, UniProt P48431, residues 19-118)
Sequence of UniProt P48431 (19-118, looked up): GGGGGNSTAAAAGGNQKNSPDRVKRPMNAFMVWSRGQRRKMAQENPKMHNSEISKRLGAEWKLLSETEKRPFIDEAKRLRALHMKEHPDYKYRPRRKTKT
Technique: protein-binding microarray
Form: double-stranded DNA, one strand shown
Sample: in vitro
Tested at: not given
Notes: k-mer, scored over probes, only values ≥0.25
Reading: higher = stronger binding
| Sequence | E-score |
| --- | --- |
| TTAATAA | 0.275 |
| AAATTAT | 0.385 |
| AATACAT | 0.337 |
| CAAAAAA | 0.271 |
| TAATAAA | 0.301 |
| TACACAA | 0.251 |
| TCAATCA | 0.261 |
| ACAATTA | 0.461 |
| AAACGGC | 0.322 |
| AACGGCC | 0.332 |
| GCAATTA | 0.302 |
| GTAATAA | 0.333 |
| CATGAAA | 0.295 |
| ATAATTA | 0.419 |
| AATAATA | 0.442 |
| ACTATTA | 0.333 |
| CATTCAA | 0.345 |
| ACAATCC | 0.277 |
| CGAACAA | 0.285 |
| TATTGAA | 0.399 |
| ACAATGC | 0.429 |
| GACACAA | 0.301 |
| ATTGACA | 0.343 |
| AACAAAT | 0.367 |
| AATAGCT | 0.28 |

Repeated from above (study 2):
| Sequence | E-score |
| --- | --- |
| TGATTGAA | -0.0602 |
| ATCTTGGA | 0.0875 |
| ACGGGTCC | 0.00385 |
| AACGAGGC | 0.0533 |
| AGCCATTC | -0.0941 |
| TCTTCGAA | 0.0206 |
| GCGAGAGC | 0.209 |
| ACCTCATG | -0.178 |
| GCCAACCC | 0.0893 |
| CTGTAACC | -0.01 |
| AACTCGCC | 0.118 |
